Experimental data gathered from unrelated publications.
Compare with care: the assays were run in different laboratories.
Target: Casein kinase I isoform alpha (CSNK1A1, Homo sapiens, UniProt P48729)

COc1cc(Nc2nccc(-c3cnn4nc(OC)ccc34)n2)cc(C(F)(F)F)c1 gave a remaining binding of 74% (binding, competition with immobilised ligand; 1 µM).
With Nc1ncc(-c2cc(-c3cnn(CC(F)(F)F)c3)ncc2F)nc1C(=O)NC1CNCC(F)C1 (centres unmarked) the remaining activity was 82.6% (enzyme activity; 1 µM; baseline: DMSO control).
O=C(Cc1ccc(OCc2ccccc2)cc1)NC1(C(=O)O)CCN(C(=O)c2ccc(-c3cccc(Cl)c3)cc2)CC1 — result for “activity vs control”: 79% (enzyme activity, inhibitor; 10 µM).
With C=CC(=O)N1Cc2nc(-c3cc(-c4cc(Cl)cnc4Cl)c(F)cc3F)n(-c3ccncn3)c2C1 the inhibition was 11.7% (cell-free assay, inhibitor; 1 µM).
COc1cc(-n2cc3cc(F)cc(C(N)=O)c3n2)cc(Cl)c1C1CC(O)(CCO)Cc2ccccc21 (centres unmarked) has an inhibition of 0.4% (enzyme activity, inhibitor; 10 µM).
CCn1cc(C(=O)O)c(=O)c2c(N)c(F)c(NC3CCCCC3)cc21 has an inhibition of 3.4% (kinase activity; 0.1 µM, together with: ATP at Km).
For NC(=O)C[C@H]1CCc2sc3ncnc(O[C@H]4CC[C@H](N5CCOCC5)CC4)c3c21, the inhibition was 4% (enzyme activity, inhibitor; 10 µM).
The inhibition of CN1CCN(Cc2ccc(-c3ccc(CO[C@H]4CCC[C@@H]4NC(=O)c4cc(-c5cnn(C)c5)cnc4N)cc3)cc2)CC1 is reported as 9% (enzyme activity, inhibitor; 0.1 µM).
CCN1CCN(Cc2ccc(C(=O)Nc3ccc(C)c(NCc4cnc5[nH]ccc5c4OC)c3)cc2C(F)(F)F)CC1 has a remaining binding of 66% (binding, competition with immobilised ligand; 1 µM).
COc1ccc(O)cc1-c1c[nH]c2ncc(-c3cncc(C(=O)N(C)C)c3)cc12 gave an inhibition of 17.5% (binding, competition with immobilised ligand; 0.2 µM).
O=c1c(-c2ccc(Cl)c(CN3CCOCC3)c2)coc2cc(O)ccc12 gave a remaining activity of 100% (enzyme activity, inhibitor; 1 µM).
